# Published values from different studies.
# Lines come from different studies, so protocols differ. Values joined by “and” are separate records of one study, mostly repeats; a detail may differ. Numbers after ± are the reported error. *: point of attachment.
# B1: FITC-labelled, Ahx spacer, C-amide; FITC = O=C1OC2(c3ccc(O)cc3Oc3cc(O)ccc32)c2ccc(NC(=S)*)cc21; Ahx = NCCCCCC(=O)O; chain {FITC-Ahx}-KKGFYKKKQCRPSKGRKRGFCW-NH2 (cysteine pairing not given here)
Molecule,cell line,assay,test system,setting,scale,endpoint,value
COc1cc(O)c2c(=O)c(O)c(-c3ccc(O)c(O)c3)oc2c1,BV-2,"NO release, inhibitor, Griess",,"24 h, added: 10 µg/mL LPS + 10 µM MLA",,Hill slope,-1.6 ± 0.4
SIIVFEKL,OT-I CD8+ T cells,,peptide,"primed 5 d, OVA257 100 ng/mL restimulation, added: no TGF-beta1",,IFN-gamma single producers,0.2%
CNC(=O)c1ccc(-c2cnc3cnc(-c4ccccc4)cn23)cc1,U1242,,,"3 µM, 48 h, added: radiation 2 Gy",reference: radiation alone,lagging chromosomes and bridges,> 2 fold and 2.4 fold
Cc1[nH]c2ccccc2c1CCNCc1ccc(/C=C/C(=O)NO)cc1,human iPSC-derived NPCs,"western blot, item: TFEB",,"0.5 µM, 24 h",reference: vehicle,protein level,> 10 fold
COc1cc2c(cc1OC)C1CC(=O)C(CC(C)C)CN1CC2 (centres unmarked),mouse pheochromocytoma MPC cells,,,"10 µM, 30 min preincubation, added: 0.024 MBq/mL [18F]-dopamine, 120 min retention phase",reference: control,[18F]-dopamine retention,33.8%
CSVTCG,rabbit smooth muscle cells,,peptide,"2 µg coated per well, 30 to 60 min",reference: thrombospondin-coated wells,adherent cells,82% and 44%
O=C(NN=Cc1c(O)ccc2ccccc12)c1ccncc1,human erythrocytes,"iron chelator, calcein dequenching",,100 µM,,labile iron pool concentration,3.07 ± 0.46 µM
CC(=O)[C@]1(O)Cc2c(O)c3c(c(O)c2[C@@H](O[C@H]2C[C@H](N)[C@H](O)[C@H](C)O2)C1)C(=O)c1ccccc1C3=O,hiPSCs,LC-MS/MS proteomics,,"concentration not given, 24 h, fold change above 1.5",,number of upregulated proteins,202
COc1ccc2c(c1)c(CC(=O)O)c(C)n2C(=O)c1ccc(Cl)cc1,human erythrocytes,hypotonicity-induced hemolysis,,"800 µg/mL, 1 h",,inhibition,97.3%
WIFPWIQL,4T1.2,WST-1,peptide,"concentration not given, 20 h",,viability,no effect
CCOc1cc(C(=O)N2CCC(N3CCN(C)CC3)CC2)ccc1Nc1ncc2c(n1)N(C1CCCC1)c1ccccc1C(=O)N2C,MM1.S,,,"500 nM and 1 µM, 3 days, added: IL-6 5 nM",,proliferation,inhibited
C[C@@H]1C[C@H]2[C@@H]3CCC4=CC(=O)C=C[C@]4(C)[C@@]3(F)[C@@H](O)C[C@]2(C)[C@@]1(O)C(=O)CO,H9c2,MTT,,"1 µM, 24 h, added: 500 µM H2O2 2 h",reference: healthy control,viability,~83%
CSVTCR,rabbit smooth muscle cells,,peptide,"2 µg coated per well, 30 to 60 min",reference: thrombospondin-coated wells,adherent cells,159%
AIAEGDSHVLKEGAY / MEIFDVQGHVFGGKIFRVVDLGSHNVA (oligomer),human T cells,"flow cytometry, ThT label",peptide,"15 µM, 1 h",,T cell association,66 to 67%
C[C@H](NC(=O)Cc1cc(F)cc(F)c1)C(=O)N[C@H](C(=O)OC(C)(C)C)c1ccccc1,HPB-ALL,"qPCR, item: NOTCH1",,"30 µM, 16 h, 37 °C",reference: untreated,mRNA level,decreased
CC[C@H](Nc1ncnc2[nH]cnc12)c1nc2cccc(F)c2c(=O)n1-c1ccccc1,primary CLL cells,"AKT phosphorylation, inhibitor",,"30 min, added: anti-IgM",any decrease,minimum effective concentration,≥ 100 nM
C/C(=C\COP(=O)(O)OP(=O)(O)O)CO,γδ T cells with loaded K562 cells,"IFN-γ production, ELISA",,2 h,,Hill slope,0.68
Cc1cc(-c2ccccc2)c2c(n1)C1(CCCCC1)NC2=O,human erythrocytes,hypotonicity-induced hemolysis,,"600 µg/mL, 1 h",,inhibition,82.7%
CC(C)(C)OC(=O)Nc1cccc(-c2cc(C(=O)NCCc3cc(C(=O)NO)no3)no2)c1,L3.6pl,"cell growth or viability, MTS",,72 h,,GI50,> 50 µM
C[C@@H]1CCO[C@H]2Cn3cc(C(=O)NCc4ccc(F)cc4F)c(=O)c(O)c3C(=O)N12,human neural progenitor cells,,,concentration not given,reference: DMSO,classification accuracy,< 100%
O=C(/C=C/N1[C@H]2CC[C@@H]1c1ncnc(NC3CC3)c1C2)c1ccccc1O,C3H10T1/2,"adipocyte differentiation, Oil Red O staining",,,,effective concentration,5 µM
O=C1NC2(CCCCC2)c2[nH]c(=S)nc(-c3ccccc3)c21,human erythrocytes,hypotonicity-induced hemolysis,,"1000 µg/mL, 1 h",,inhibition,94%
CCCCCCCCCCCCCCCCCCOc1ccccc1CC(=O)OCC[N+](C)(C)C,nine NSCLC cell lines,,,10 µM,,mean growth inhibition,77.7%
Fibronectin,chick DRG neurons,,,"5 µg/mL, 24 h, coated substrate",,neurons with neurites,~30%
CC(C)(N)C(=O)O,"Ehrlich ascites cells, mouse",Na+ binding to substrate-carrier,,equilibrium model K4,,Kd,9200 µM
CCCCCCCCCCCCCCCCCCOCC(COP(=O)([O-])OCC[N+](C)(C)C)OC (centres unmarked),leukaemia cells,,,range over four lines,,GI50,3.94 to 44.3 µM
peginesatide,UT-7/Epo,"cell proliferation, agonist",,"2.5 d, matched to rHu-EPO 1.5 U/mL",,dose equivalent to rHu-EPO,2.1 nM
"Ac-LRKLRKRLLRDWLKAFYDKVAEKLKEAF-NH2 (N-acetyl, C-amide)",THP-1 derived macrophages,,peptide,"concentration not given, 3 h, 37 °C, added: 2 µg/mL Aβ42",reference: without peptide,Aβ42 uptake enhancement,> 2 fold
COc1cc(O)c2c(c1)O[C@H](c1ccc(O)cc1)CC2=O,BV-2,"TNF-alpha release, inhibitor, ELISA",,"24 h, added: 10 µg/mL LPS + 1 µM nicotine",,Hill slope,-2.7 ± 1
CC[C@H](C)[C@H](NC(=O)[C@@H](CC(=O)NO)Cc1ccccc1)C(=O)N[C@@H](CC(C)C)C(=O)O,HK-2,RIA,intracellular,"20 nM, 72 h",,angiotensin-(1-7) content,37 ± 5 fmol/mg protein
B1,"CHO pgsD-677, heparan sulfate-deficient",flow cytometry,,"20 µM, 2 h, 37 °C, FITC-labelled peptide",reference: wild-type CHO-K1,cellular uptake,~62%
SIYNFEKL,OT-I CD8+ T cells,"item: IL-2, IFN-gamma, TNF-alpha",peptide,"primed 5 d, OVA257 100 ng/mL restimulation, added: no TGF-beta1",,double cytokine producers,21.1%
O=C1CCC(=O)C2(CCCCC2)N1,human erythrocytes,hypotonicity-induced hemolysis,,"1000 µg/mL, 1 h",,inhibition,84.7%
COc1ccc(-c2ccc(-c3ccc(C(=N)N)nc3)s2)cc1,HepG2,"real-time PCR, item: caspase-3",,"0.1 µM, 8 h, unit not given",reference: untreated,mRNA level,1.57 ± 0.76
O=C1NC2(CCCCC2)c2nc3c(c(-c4ccccc4)c21)CCCC3,human erythrocytes,hypotonicity-induced hemolysis,,"100 µg/mL, 1 h",,inhibition,76.1%
COc1cc(-c2ccc(-c3ccc(C(=N)N)nc3)s2)cc(OC)c1OC,HepG2,"real-time PCR, item: TXNRD1",,"0.1 µM, 8 h, unit not given",reference: untreated,mRNA level,1.07 ± 0.12
CNCCCN1c2ccccc2CCc2ccccc21,mouse pheochromocytoma MPC cells,,,"1 µM, 30 min preincubation, added: 0.029 MBq/mL [18F]-DOPA 10 min",reference: control,[18F]-DOPA uptake,67.4%
NC1=NC(=S)NC12CCCCC2,human erythrocytes,hypotonicity-induced hemolysis,,"100 µg/mL, 1 h",,inhibition,88.4%
COc1cccc2c1C(=O)c1c(O)c3c(c(O)c1C2=O)C[C@@](O)(C(=O)CO)C[C@@H]3O[C@H]1C[C@H](N)[C@H](O)[C@H](C)O1,HepG2,"real-time PCR, item: caspase-3",,"0.1 µM, 8 h, unit not given",reference: untreated,mRNA level,4.17 ± 0.91
neuropeptide Y,rat sciatic nerve fibroblasts,radioimmunoassay,,"concentration not given, 2 min, added: 200 µM IBMX",,cAMP level,no effect
COc1cc(Cc2nnc3sc(/C=C/c4ccc(Cl)cc4)nn23)c(S(=O)(=O)N(C)C)cc1OC,MRC5 normal lung fibroblasts,MTT,,48 h,,TGI,> 100 µM
